# Published values of several laboratories.
# Each line is one published result; not all experiments were run side by side. Numbers after ± are the reported error.
# B1: susA (Bacteroides thetaiotaomicron, UniProt Q8A1G0); chain TSTIKKVAPTFWWAGMKNPELQILLYGDRISSADVSLSADNITLQEVVKQENPNYLVLYLDLSKAAPQNFDIILKQGKKQTKIPYELKQRRPNASAVEGFDSSDVLYLIMPDRFANGNPSNDIIPGMLEGNVDRNEPFARHGGDLKGIENHLDYIADLGVTSIWLNPIQENDMKEGSYHGYAITDYYQVDRRFGSNEEFRKLTQEANAKGLKVVMDMIFNHCGSDNYLFKDMPSKDWFNFEGNYVQTSFKTATQMDPYASDYEKKIAIDGWFTLTMPDFNQRNRHVATYLIQSSIWWIEYAGINGIRQDTHPYADFDMMARWCKAVNEEYPKFNIVGETWLGNNVLISYWQKDSRLAYPKNSNLPTVMDFPLMEEMNKAFDEETTEWNGGLFRLYEYLSQDIVYSHPMSLLTFLDNHDTSRFYRSEADTKNLDRYKQALTFLLTTRGIPQIYYGTEILMAADKANGDGLLRCDFPGGWPNDTKNCFDAANRTPQQNEAFSFMQKLLQWRKGNEVIAKGQLKHFAPNKGVYVYERKYGDKSVVVFLNGNDREQTIDLVPYQEILPASSAFDLLTEKKVELRNELTLPSREIYLLSF
# UniProt P11388, sequence (whole entry, looked up): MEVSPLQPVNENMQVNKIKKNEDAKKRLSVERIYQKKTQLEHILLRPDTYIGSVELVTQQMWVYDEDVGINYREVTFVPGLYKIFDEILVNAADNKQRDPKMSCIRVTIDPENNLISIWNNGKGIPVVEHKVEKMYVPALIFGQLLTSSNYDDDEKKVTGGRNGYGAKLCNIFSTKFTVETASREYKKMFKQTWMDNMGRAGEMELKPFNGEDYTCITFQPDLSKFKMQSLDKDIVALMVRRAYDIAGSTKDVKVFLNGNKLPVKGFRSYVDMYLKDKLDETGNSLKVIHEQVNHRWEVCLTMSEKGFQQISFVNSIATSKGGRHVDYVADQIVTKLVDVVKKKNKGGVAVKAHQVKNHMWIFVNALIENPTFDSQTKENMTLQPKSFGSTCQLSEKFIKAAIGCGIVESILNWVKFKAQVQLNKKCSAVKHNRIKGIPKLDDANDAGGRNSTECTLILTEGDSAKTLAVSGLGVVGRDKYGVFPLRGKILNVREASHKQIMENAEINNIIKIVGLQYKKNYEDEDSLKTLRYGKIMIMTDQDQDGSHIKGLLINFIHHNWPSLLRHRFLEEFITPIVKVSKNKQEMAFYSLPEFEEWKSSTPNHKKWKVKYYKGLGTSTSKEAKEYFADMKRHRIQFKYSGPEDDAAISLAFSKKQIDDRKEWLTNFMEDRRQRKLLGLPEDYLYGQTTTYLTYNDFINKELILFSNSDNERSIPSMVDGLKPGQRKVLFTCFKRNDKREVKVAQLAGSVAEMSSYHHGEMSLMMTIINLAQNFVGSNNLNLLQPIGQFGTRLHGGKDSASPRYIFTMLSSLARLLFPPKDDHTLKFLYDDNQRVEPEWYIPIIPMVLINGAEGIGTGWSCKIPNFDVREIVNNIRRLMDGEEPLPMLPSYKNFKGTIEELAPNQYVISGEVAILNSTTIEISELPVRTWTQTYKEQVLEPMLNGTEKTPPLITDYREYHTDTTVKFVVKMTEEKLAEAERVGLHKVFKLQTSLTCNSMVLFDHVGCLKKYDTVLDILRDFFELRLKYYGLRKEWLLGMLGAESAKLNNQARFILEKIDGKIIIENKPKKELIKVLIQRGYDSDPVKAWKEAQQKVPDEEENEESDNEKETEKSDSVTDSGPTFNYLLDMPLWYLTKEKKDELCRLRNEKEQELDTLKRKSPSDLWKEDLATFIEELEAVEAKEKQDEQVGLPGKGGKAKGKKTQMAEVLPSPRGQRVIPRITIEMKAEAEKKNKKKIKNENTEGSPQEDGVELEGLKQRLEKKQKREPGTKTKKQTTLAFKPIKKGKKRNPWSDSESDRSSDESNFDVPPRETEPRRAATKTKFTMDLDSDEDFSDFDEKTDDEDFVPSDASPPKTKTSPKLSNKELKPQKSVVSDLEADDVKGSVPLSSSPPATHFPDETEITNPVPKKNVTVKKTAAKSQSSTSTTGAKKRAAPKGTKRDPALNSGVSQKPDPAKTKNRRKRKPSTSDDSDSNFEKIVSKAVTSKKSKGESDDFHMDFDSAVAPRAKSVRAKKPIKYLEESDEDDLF
Substance,tested on,assay,test system,setting,scale,quantity,value
COC(=O)Nc1c(N)nc(-c2nn(Cc3ccccc3F)c3ncc(F)cc23)nc1N,,,"human, plasma","5 mg, geometric mean, added: magnesium/aluminum hydroxide",,Cmax,78.3 ng/mL
COc1cc([C@@H]2c3cc4c(cc3[C@@H](O[C@@H]3O[C@@H]5CO[C@@H](C)O[C@H]5[C@H](O)[C@H]3O)[C@H]3COC(=O)[C@H]23)OCO4)cc(OC)c1O,"DNA topoisomerase 2-alpha (TOP2A, Homo sapiens, UniProt P11388)","DNA decatenation, gel-based decatenation",,7.8 µM,,inhibition,90.3%
Fc1ccccc1Cc1nc(-c2nc(C(F)(F)F)n[nH]2)cn2ccnc12,,,"healthy human subjects, both sexes","oral, 10 mg, fed",,subjects with musculoskeletal TEAEs,7.7%
B1 (susA),O=[N+]([O-])c1ccc(O[C@H]2O[C@H](CO)[C@@H](O[C@H]3O[C@H](CO)[C@@H](O[C@H]4O[C@H](CO)[C@@H](O[C@H]5O[C@H](CO)[C@@H](O[C@H]6O[C@H](CO)[C@@H](O[C@H]7O[C@H](CO)[C@@H](O)[C@H](O)[C@H]7O)[C@H](O)[C@H]6O)[C@H](O)[C@H]5O)[C@H](O)[C@H]4O)[C@H](O)[C@H]3O)[C@H](O)[C@H]2O)cc1,steady-state kinetics,,pH 7,,kcat,13.8 ± 0.3 s⁻¹
N#CCC1CCN(c2nc(Nc3ccc(N4CCC(O)CC4)cc3)c3c(=O)[nH]ncc3n2)CC1,,"vs placebo, Olink multiplex","human, serum","20 mg, day 29, unit not given",relative to: placebo,GIF level difference,1.11

# Some of these lines once more:
Substance,tested on,assay,test system,setting,scale,quantity,value
COC(=O)Nc1c(N)nc(-c2nn(Cc3ccccc3F)c3ncc(F)cc23)nc1N,,,"human, plasma","5 mg, geometric mean, added: magnesium/aluminum hydroxide",,Cmax,78.3 ng/mL
